Measurements from different studies.
“And” joins repeats or separate records; there may be more than shown. ± gives the spread as reported.
Nuclear receptor subfamily 2 group C member 2 ligand-binding domain: Nuclear receptor subfamily 2 group C member 2, ligand-binding domain (Homo sapiens, UniProt P49116)
UniProt P49116, sequence (whole entry, looked up): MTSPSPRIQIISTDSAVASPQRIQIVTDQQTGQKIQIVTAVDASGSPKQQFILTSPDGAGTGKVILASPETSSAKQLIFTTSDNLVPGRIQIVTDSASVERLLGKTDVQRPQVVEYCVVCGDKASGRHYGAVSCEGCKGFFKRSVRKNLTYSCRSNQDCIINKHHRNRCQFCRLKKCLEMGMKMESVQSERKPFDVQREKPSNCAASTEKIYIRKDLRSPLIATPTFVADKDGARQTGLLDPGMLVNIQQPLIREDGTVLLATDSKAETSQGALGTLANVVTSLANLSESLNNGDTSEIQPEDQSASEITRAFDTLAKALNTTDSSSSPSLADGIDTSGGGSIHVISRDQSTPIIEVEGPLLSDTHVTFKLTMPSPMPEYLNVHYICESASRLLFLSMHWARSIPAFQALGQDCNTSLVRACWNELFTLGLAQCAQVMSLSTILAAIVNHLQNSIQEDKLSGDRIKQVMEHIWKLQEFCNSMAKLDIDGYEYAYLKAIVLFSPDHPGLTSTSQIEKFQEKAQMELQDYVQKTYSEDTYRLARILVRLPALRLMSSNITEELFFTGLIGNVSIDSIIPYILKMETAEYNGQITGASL

C[C@H]1C[C@H]2CSC(N)=N[C@@]2(c2nc(NC(=O)c3ccc(OC(F)F)cn3)cs2)CO1
percent change from baseline (refers to: Aβ1-40; healthy adults, plasma; 5 mg once daily, day 10; reference: placebo): -58%

NCCOc1cc(NC(=O)c2cccc(C(=O)Nc3cc(OCCN)c4ccccc4n3)n2)nc2ccccc12
ΔTm (human telomeric G-quadruplex DNA; FRET melting; 1 µM, pH 7.4, together with: 60 mM potassium): 28.4 ± 0.8 K

Cn1cc(-c2ccc(-c3cncc(Cl)c3N3CCC4(CCNC4=O)CC3)cc2)cn1
log2 fold change (COLO 205; gene expression, microarray, refers to: P4HA2 mRNA; concentration not given, 2 h; reference: untreated cells): 1.76

Cc1cccc(-c2[nH]c(CNc3ccccc3F)nc2-c2ccc3ncnn3c2)n1
XTT absorbance (pomalidomide-resistant MM1.S cells; XTT; 1.5 µM; higher = more viable cells): 2.3 E-1 and 2 E-1 and 2.4 E-1

CC1CC(OC(=O)C(O)c2ccccc2)CC(C)(C)C1 (stereo not shown)
Kd (Nuclear receptor subfamily 2 group C member 2 ligand-binding domain; SPR imaging): 0.000219 µM

c1coc(-c2n[nH]cc2-c2ccnc3ccccc23)c1
log2 fold change (KIN28 (Candida albicans); kinase binding, MIB/MS competition; Candida albicans lysate; 10 µM; reference: DMSO): -0.34

O=C(/C=C/C=C/C=C/C1CCCCC1)NC1=C[C@@](O)(/C=C/C=C/C=C/C(=O)NC2=C(O)CCC2=O)[C@@H]2O[C@@H]2C1=O
GI50 (COLO-678; cell growth, CellTiter-Glo; 78 h): 24.1 µM

CC(C)NCC(O)c1ccc(O)c(O)c1 (stereo not shown)
sarcomere length (ventricular cardiomyocytes, C57BL/6 mouse; dose not given, 0.708 s): 1.72 µm

Oc1ccccc1-c1n[nH]cc1-c1ccnc2ccccc12
log2 fold change (YPK1 (Candida albicans); kinase binding, MIB/MS competition; Candida albicans lysate; 1 µM; reference: DMSO): -0.06

COc1cc(C(=O)Nc2cc(OC)c3ccccc3n2)nc(C(=O)Nc2cc(OC)c3ccccc3n2)c1
ΔTm (human telomeric G-quadruplex DNA; FRET melting; 1 µM, pH 7.4, together with: 60 mM potassium): 0.5 ± 0.4 K

CCn1cc(-c2cc(Cn3ccoc3=N)cc3c2CCN([C@@H](C)c2cc(OC)ccn2)C3=O)c(C(F)(F)F)n1
EC50 (TE-11; cell growth, inhibitor; 120 h): 0.0343 µM

CCCC(=O)O
viability (OCI-Ly1; 0.1 µM, 120 h): 185%

O=C(O)CNC(=O)Cc1ccccc1
sarcomere length (ventricular cardiomyocytes, C57BL/6 mouse; dose not given, 0.216 s): 1.62 µm

NC(=O)c1cnc2[nH]ccc2c1N[C@@H]1[C@@H]2CC3C[C@H]1C[C@@](O)(C3)C2
change from baseline (flow cytometry, refers to: CD8+ effector memory T cells; Japanese healthy subjects, peripheral blood; oral, 30 mg twice daily, day 7): 0.22%

CC[C@@H]1C(=O)OC[C@@H]1Cc1cncn1C
Kd (Nuclear receptor subfamily 2 group C member 2 ligand-binding domain; SPR imaging): 0.000801 µM

NCCCOc1cc(NC(=O)c2cc(Cl)cc(C(=O)Nc3cc(OCCCN)c4ccccc4n3)n2)nc2ccccc12
ΔTm (human telomeric G-quadruplex DNA; FRET melting; 1 µM, pH 7.4, together with: 60 mM potassium): 35.5 ± 0.7 K

Cc1ccc(C(=O)Nc2ccc(S(=O)(=O)O)c3cc(S(=O)(=O)O)cc(S(=O)(=O)O)c23)cc1NC(=O)c1cccc(NC(=O)Nc2cccc(C(=O)Nc3cc(C(=O)Nc4ccc(S(=O)(=O)O)c5cc(S(=O)(=O)O)cc(S(=O)(=O)O)c45)ccc3C)c2)c1
viability (OCI-Ly1; 0.1 µM, 120 h): 196%

COc1cc2ncnc(Nc3ccc(Oc4ccccc4)cc3C)c2cc1OC
viability (LoVo (KRAS G13D); cell growth, resazurin; 1 µM, 72 h, together with: 0 nM trametinib): 88.6%

O=C(O)CCCc1ccccc1
viability (OCI-Ly1; 0.5 µM, 120 h): 150%

O=C(Nc1cc(OCCN2CCCC2)c2ccccc2n1)c1cc(Cl)cc(C(=O)Nc2cc(OCCN3CCCC3)c3ccccc3n2)n1
delta Tm (double-stranded DNA; FRET melting; 1 µM, pH 7.4, 60 mM potassium, together with: oligonucleotide 200 nM): 0.1 ± 0.1 K

CC(C)(C)OC(=O)CN(Cc1ccc(Cl)cc1)Cc1ccc([N+](=O)[O-])s1
viability (OCI-Ly1; 0.5 µM, 120 h): 130%

CN(C)CCOc1cc(NC(=O)c2cc(Cl)cc(C(=O)Nc3cc(OCCN(C)C)c4ccccc4n3)n2)nc2ccccc12
ΔTm (human telomeric G-quadruplex DNA; FRET melting; 1 µM, pH 7.4, together with: 60 mM potassium): 27.9 ± 0.6 K

COC(=O)/C=C/C(=O)N(O)CCCCNCc1ccc(COC(=O)Nc2cccc3ccccc23)cc1
viability (OCI-Ly1; 0.1 µM, 120 h): 207%

NCCCOc1cc(NC(=O)c2cc(OCCN)cc(C(=O)Nc3cc(OCCCN)c4ccccc4n3)n2)nc2ccccc12
ΔTm (c-kit2 G-quadruplex DNA; FRET melting; 1 µM, pH 7.4, together with: 60 mM potassium): 16.2 ± 0.7 K

COc1c(O)cc2c(c1O)C(=O)c1c(cc(C)c(O)c1OC)C2=O
cell viability (HepaRG co-cultured with HK-2; MTT; 16.67 µM, 24 h; reference: untreated control): 97.2 ± 9.92%

O=C(Nc1ccc2c(O)cc(S(=O)(=O)O)cc2c1)Nc1ccc2c(O)cc(S(=O)(=O)O)cc2c1
viability (OCI-Ly1; 1 µM, 120 h): 150%

NCCCOc1cc(NC(=O)c2cccc(C(=O)Nc3cc(OCCCN)c4ccccc4n3)n2)nc2ccccc12
ΔTm (human telomeric G-quadruplex DNA; FRET melting; 1 µM, pH 7.4, together with: 60 mM potassium): 31.4 ± 0.8 K

COc1cnc2cccc(N3CCc4c(cc(Cn5ccnc5C)cc4-c4cn(C)nc4C(F)(F)F)C3=O)c2c1
EC50 (SCC-15; cell growth, inhibitor; 120 h): 0.745 µM

O=C([C@@H](Cc1cccc(C(F)(F)F)c1)NS(=O)(=O)c1cc(F)c2c(c1)CCNC2)N1CCCC1
viability (OCI-Ly1; 0.1 µM, 120 h): 117%

COc1cc(C(=O)Nc2cc(OCCN3CCCC3)c3ccccc3n2)nc(C(=O)Nc2cc(OCCN3CCCC3)c3ccccc3n2)c1
ΔTm (c-kit2 G-quadruplex DNA; FRET melting; 1 µM, pH 7.4, together with: 60 mM potassium): 11.2 ± 0.6 K

CC(C)n1c(/C=C/C(O)CC(O)CC(=O)O)c(-c2ccc(F)cc2)c2ccccc21 (stereo not shown)
apoptotic cells (COS-7; 10 µM, 24 h, 0.1% DMSO, unit not given; reference: vehicle control): 2.39 ± 0.43

CCn1cc(-c2cc(Cn3ccnc3)cc3c2CCN([C@H](c2cc(OC)ccn2)C2CC2)C3=O)c(C(F)(F)F)n1
EC50 (SW1417; cell growth, inhibitor; 120 h): 17.8 µM

Nc1nccc2c1ncn2[C@@H]1C=C(CO)[C@@H](O)[C@H]1O
viability (OCI-Ly1; 1 µM, 120 h): 3.89%

CN(C)C(=O)CCc1nc(-c2ccccc2)c(-c2ccccc2)o1
apoptosis (COS-7; 100 µM, 24 h, 0.1% DMSO, unit not given; reference: control): 0.93 ± 0.14

Repeated from above:
NC(=O)c1cnc2[nH]ccc2c1N[C@@H]1[C@@H]2CC3C[C@H]1C[C@@](O)(C3)C2
change from baseline (flow cytometry, refers to: CD8+ effector memory T cells; Japanese healthy subjects, peripheral blood; oral, 30 mg twice daily, day 7): 0.22%

CC[C@@H]1C(=O)OC[C@@H]1Cc1cncn1C
Kd (Nuclear receptor subfamily 2 group C member 2 ligand-binding domain; SPR imaging): 0.000801 µM

NCCCOc1cc(NC(=O)c2cc(Cl)cc(C(=O)Nc3cc(OCCCN)c4ccccc4n3)n2)nc2ccccc12
ΔTm (human telomeric G-quadruplex DNA; FRET melting; 1 µM, pH 7.4, together with: 60 mM potassium): 35.5 ± 0.7 K

Cc1ccc(C(=O)Nc2ccc(S(=O)(=O)O)c3cc(S(=O)(=O)O)cc(S(=O)(=O)O)c23)cc1NC(=O)c1cccc(NC(=O)Nc2cccc(C(=O)Nc3cc(C(=O)Nc4ccc(S(=O)(=O)O)c5cc(S(=O)(=O)O)cc(S(=O)(=O)O)c45)ccc3C)c2)c1
viability (OCI-Ly1; 0.1 µM, 120 h): 196%

COc1cc2ncnc(Nc3ccc(Oc4ccccc4)cc3C)c2cc1OC
viability (LoVo (KRAS G13D); cell growth, resazurin; 1 µM, 72 h, together with: 0 nM trametinib): 88.6%

O=C(O)CCCc1ccccc1
viability (OCI-Ly1; 0.5 µM, 120 h): 150%
